# Results from different studies.
# Lines come from different studies, so protocols differ.
# B1: STAMBP 244-424 (Homo sapiens, UniProt O95630); sequence looked up; chain NSESIPTIDGLRHVVVPGRLCPQFLQLASANTARGVETCGILCGKLMRNEFTITHVLIPKQSAGSDYCNTENEEELFLIQDQQGLITLGWIHTHPTQTAFLSSVDLHTHCSYQMMLPESVAIVCSPKFQETGFFKLTDHGLEEISSCRQKGFHPHSKDPPLFCSCSHVTVVDRAVTITDLR
# B2: human GANAB; sequence looked up; chain ITLAVDRSNFKTCEESSFCKRQRSIRPGLSPYRALLDSLQLGPDSLTVHLIHEVTKVLLVLELQGLQKNMTRFRIDELEPRRPRYRVPDVLVADPPIARLSVSGRDENSVELTMAEGPYKIILTARPFRLDLLEDRSLLLSVNARGLLEFEHQRAPRVSQGSKDPAEGDGAQPEETPRDGDKPEETQGKAEKDEPGAWEETFKTHSDSKPYGPMSVGLDFSLPGMEHVYGIPEHADNLRLKVTEGGEPYRLYNLDVFQYELYNPMALYGSVPVLLAHNPHRDLGIFWLNAAETWVDISSNTAGKTLFGKMMDYLQGSGETPQTDVRWMSETGIIDVFLLLGPSISDVFRQYASLTGTQALPPLFSLGYHQSRWNYRDEADVLEVDQGFDDHNLPCDVIWLDIEHADGKRYFTWDPSRFPQPRTMLERLASKRRKLVAIVDPHIKVDSGYRVHEELRNLGLYVKTRDGSDYEGWCWPGSAGYPDFTNPTMRAWWANMFSYDNYEGSAPNLFVWNDMNEPSVFNGPEVTMLKDAQHYGGWEHRDVHNIYGLYVHMATADGLRQRSGGMERPFVLARAFFAGSQRFGAVWTGDNTAEWDHLKISIPMCLSLGLVGLSFCGADVGGFFKNPEPELLVRWYQMGAYQPFFRAHAHLDTGRREPWLLPSQHNDIIRDALGQRYSLLPFWYTLLYQAHREGIPVMRPLWVQYPQDVTTFNIDDQYLLGDALLVHPVSDSGAHGVQVYLPGQGEVWYDIQSYQKHHGPQTLYLPVTLSSIPVFQRGGTIVPRWMRVRRSSECMKDDPITLFVALSPQGTAQGELFLDDGHTFNYQTRQEFLLRRFSFSGNTLVSSSADPEGHFETPIWIERVVIIGAGKPAAVVLQTKGSPESRLSFQHDPETSVLVLRKPGINVASDWSIHLR
# B3: DLL4 27-400 (Homo sapiens, UniProt Q9NR61); chain SGVFQLQLQEFINERGVLASGRPCEPGCRTFFRVCLKHFQAVVSPGPCTFGTVSTPVLGTNSFAVRDDSSGGGRNPLQLPFNFTWPGTFSLIIEAWHAPGDDLRPEALPPDALISKIAIQGSLAVGQNWLLDEQTSTLTRLRYSYRVICSDNYYGDNCSRLCKKRNDHFGHYVCQPDGNLSCLPGWTGEYCQQPICLSGCHEQNGYCSKPAECLCRPGWQGRLCNECIPHNGCRHGTCSTPWQCTCDEGWGGLFCDQDLNYCTHHSPCKNGATCSNSGQRSYTCTCRPGYTGVDCELELSECDSNPCRNGGSCKDQEDGYHCLCPPGYYGLHCEHSTLSCADSPCFNGGSCRERNQGANYACECPPNFTGSNCE
# B4: prohibitin, human; sequence looked up; chain AAKVFESIGKFGLALAVAGGVVNSALYNVDAGHRAVIFDRFRGVQDIVVGEGTHFLIPWVQKPIIFDCRSRPRNVPVITGSKDLQNVNITLRILFRPVASQLPRIFTSIGEDYDERVLPSITTEILKSVVARFDAGELITQRELVSRQVSDDLTERAATFGLILDDVSLTHLTFGKEFTEAVEAKQVAQQEAERARFVVEKAEQQKKAAIISAEGDSKAAELIANSLATAGDGLIELRKLEAAEDIAYQLSRSRNITYLPAGQSVLLQLPQ
# UniProt P46531, sequence (whole entry, looked up): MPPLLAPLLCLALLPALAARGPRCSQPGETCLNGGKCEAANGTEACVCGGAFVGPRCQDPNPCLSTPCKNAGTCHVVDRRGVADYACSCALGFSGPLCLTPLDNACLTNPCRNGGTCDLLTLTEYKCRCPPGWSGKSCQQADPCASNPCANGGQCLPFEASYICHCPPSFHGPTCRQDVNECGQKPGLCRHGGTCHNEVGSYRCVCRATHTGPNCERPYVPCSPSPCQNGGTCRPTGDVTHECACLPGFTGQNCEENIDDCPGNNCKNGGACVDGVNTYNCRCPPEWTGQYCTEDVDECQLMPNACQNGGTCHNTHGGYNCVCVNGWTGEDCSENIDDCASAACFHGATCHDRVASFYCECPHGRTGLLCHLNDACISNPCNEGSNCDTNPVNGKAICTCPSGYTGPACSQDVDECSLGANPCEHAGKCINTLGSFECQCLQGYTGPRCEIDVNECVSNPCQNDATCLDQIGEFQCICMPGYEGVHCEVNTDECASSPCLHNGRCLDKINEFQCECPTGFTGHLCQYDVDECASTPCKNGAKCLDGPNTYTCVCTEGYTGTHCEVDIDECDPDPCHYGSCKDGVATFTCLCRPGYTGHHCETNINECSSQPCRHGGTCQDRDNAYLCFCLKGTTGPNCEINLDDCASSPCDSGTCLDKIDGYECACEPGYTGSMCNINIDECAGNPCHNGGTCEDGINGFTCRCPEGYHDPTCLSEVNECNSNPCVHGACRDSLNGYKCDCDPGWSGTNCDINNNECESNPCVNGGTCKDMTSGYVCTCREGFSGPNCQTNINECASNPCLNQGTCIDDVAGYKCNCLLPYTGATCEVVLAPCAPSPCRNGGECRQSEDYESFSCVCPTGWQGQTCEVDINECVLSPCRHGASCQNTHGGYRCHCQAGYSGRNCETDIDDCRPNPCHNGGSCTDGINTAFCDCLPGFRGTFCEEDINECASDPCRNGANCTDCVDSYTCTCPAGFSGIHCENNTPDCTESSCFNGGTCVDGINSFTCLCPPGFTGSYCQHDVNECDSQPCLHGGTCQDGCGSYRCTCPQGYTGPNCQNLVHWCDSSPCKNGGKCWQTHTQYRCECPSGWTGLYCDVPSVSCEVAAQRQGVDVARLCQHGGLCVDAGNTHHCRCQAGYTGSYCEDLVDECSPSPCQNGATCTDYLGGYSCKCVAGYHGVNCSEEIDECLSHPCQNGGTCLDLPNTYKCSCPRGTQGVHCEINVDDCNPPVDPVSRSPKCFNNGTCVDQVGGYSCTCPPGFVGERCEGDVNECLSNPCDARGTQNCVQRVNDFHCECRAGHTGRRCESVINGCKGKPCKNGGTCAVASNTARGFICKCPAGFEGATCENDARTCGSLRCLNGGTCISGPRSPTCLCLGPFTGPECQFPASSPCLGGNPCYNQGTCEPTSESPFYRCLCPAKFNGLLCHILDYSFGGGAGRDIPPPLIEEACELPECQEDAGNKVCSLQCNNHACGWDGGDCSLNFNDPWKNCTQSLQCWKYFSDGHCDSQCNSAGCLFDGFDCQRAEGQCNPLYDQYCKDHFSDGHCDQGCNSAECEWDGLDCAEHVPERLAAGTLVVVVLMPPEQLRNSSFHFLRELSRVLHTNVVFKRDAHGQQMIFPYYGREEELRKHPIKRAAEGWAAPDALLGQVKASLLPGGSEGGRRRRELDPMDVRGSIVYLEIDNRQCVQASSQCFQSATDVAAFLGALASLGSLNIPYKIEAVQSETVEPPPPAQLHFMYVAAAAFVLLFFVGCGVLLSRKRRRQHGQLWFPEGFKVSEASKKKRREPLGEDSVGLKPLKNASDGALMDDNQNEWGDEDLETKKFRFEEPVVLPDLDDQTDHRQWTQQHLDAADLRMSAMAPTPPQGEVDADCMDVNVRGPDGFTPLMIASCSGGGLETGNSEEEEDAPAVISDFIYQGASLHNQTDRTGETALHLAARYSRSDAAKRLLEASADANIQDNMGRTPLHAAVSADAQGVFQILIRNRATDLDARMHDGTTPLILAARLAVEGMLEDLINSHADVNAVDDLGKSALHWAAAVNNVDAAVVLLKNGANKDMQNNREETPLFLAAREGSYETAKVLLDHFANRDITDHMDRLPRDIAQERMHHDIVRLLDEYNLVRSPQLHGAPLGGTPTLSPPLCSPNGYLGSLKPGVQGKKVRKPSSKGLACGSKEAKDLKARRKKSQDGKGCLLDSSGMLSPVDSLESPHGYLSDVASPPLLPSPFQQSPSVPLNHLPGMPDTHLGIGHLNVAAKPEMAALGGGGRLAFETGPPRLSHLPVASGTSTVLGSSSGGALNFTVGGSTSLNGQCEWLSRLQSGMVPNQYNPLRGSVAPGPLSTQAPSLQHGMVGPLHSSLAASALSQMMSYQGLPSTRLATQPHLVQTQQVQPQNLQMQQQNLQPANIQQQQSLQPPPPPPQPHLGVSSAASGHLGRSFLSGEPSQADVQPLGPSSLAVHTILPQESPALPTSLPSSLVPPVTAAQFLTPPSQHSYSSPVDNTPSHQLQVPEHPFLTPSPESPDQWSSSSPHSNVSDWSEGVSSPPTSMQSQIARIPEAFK
# UniProt Q96NY8, sequence (whole entry, looked up): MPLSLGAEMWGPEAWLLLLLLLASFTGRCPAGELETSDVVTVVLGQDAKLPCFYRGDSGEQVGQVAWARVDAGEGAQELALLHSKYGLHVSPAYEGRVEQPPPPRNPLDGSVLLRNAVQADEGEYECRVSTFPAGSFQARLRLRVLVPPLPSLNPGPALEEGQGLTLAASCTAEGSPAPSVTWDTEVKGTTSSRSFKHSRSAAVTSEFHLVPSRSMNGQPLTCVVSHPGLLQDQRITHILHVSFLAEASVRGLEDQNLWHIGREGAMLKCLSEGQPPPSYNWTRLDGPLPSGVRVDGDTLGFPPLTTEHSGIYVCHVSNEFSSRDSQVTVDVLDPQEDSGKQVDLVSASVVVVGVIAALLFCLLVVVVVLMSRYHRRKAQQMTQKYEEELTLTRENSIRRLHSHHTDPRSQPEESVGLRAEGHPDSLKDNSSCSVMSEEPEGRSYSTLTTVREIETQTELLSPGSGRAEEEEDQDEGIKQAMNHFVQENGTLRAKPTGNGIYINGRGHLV
# UniProt Q13185, sequence (whole entry, unmodified, looked up): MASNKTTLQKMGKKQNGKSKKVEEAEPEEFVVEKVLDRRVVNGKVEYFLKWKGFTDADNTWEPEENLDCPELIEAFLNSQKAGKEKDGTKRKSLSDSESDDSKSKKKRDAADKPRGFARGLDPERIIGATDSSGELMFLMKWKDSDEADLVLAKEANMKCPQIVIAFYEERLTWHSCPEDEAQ
# UniProt P04695, sequence (whole entry, looked up): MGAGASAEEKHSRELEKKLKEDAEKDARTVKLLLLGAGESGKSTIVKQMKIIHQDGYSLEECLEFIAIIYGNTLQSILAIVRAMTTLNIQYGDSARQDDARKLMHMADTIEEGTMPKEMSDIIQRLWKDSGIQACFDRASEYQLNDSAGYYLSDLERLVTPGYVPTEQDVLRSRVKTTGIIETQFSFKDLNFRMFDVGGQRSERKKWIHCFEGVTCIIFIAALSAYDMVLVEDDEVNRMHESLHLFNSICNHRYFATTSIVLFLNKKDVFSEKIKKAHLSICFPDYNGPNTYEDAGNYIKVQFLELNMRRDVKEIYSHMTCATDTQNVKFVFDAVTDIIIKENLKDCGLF
# UniProt P12314, sequence (whole entry, unmodified, looked up): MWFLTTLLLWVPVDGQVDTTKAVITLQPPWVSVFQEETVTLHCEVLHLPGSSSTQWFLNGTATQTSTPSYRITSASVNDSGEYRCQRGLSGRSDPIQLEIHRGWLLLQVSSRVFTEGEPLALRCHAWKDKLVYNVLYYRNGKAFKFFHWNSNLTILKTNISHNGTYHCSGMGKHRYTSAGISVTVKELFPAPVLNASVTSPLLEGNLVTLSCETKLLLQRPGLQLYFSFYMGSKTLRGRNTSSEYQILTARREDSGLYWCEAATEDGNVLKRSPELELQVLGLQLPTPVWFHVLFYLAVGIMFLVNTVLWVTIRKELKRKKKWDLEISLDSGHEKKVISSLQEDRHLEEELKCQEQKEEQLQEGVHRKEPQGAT
Molecule,tested on,test,test system,conditions,how to read,quantity,value
"Trastuzumab IgG1, CSCS double cysteine mutant (Homo sapiens)","FCGR1A (Homo sapiens, UniProt P12314)",SPR,,,,kon,590000 M⁻¹ s⁻¹
B1 (STAMBP 244-424),"Lys63-linked diubiquitin (Homo sapiens, UniProt P0CG48)","Lys63 diubiquitin cleavage, SDS-PAGE",,"20-100 µM, 20 °C",,kcat,1.4 s⁻¹
"FGA (Homo sapiens, UniProt P02671)","AFDN (Homo sapiens, UniProt P55196)",cross-linking MS,,added: DSSO,,cross-linked residues,K432 to K119
B2 (human GANAB),PP6C (human),"co-immunoprecipitation, IP-MS",CYB5R4 knockout cells,concentration not given,reference: CYB5R4 knockout over parental,log2 fold change,-0.42
DLDSDDEY (TELO2 488-494 (Homo sapiens); pS491),"PIH1D1 51-180 K166A (Homo sapiens, UniProt Q9NWS0)",ITC,peptide,,,molecule per partner,0.6
"ALB (Homo sapiens, UniProt P02768)","ZNF813 (Homo sapiens, UniProt Q6ZN06)",cross-linking MS,,added: DSSO,,cross-linked residues,K456 to K166
RGS9/GNB5 (Bos taurus),"GNAT1 (Bos taurus, UniProt P04695)",co-IP,,,reference: total,Gαt bound,1%
B3 (DLL4 27-400),"NOTCH1 full length, on cells (UniProt P46531)",Notch1 reporter activation EC50,CHO-K1,24 h,,adsorbed ligand amount,2.3 ng mm^-2
"CBX3 (Homo sapiens, UniProt Q13185)","SUV39H1 catalytic domain, C-terminal truncation (Homo sapiens)",pull-down,,"1.5 µM, added: chaetocin 0.1 µM",higher = less binding,binding reduction,76%
"FGB (Homo sapiens, UniProt P02675)","LRRN1 (Homo sapiens, UniProt Q6UXK5)",cross-linking MS,,added: DSSO,,cross-linked residues,K353 to K666
"B4 (prohibitin, human)",CYB5R4 knockout human cells,"PP6 interaction, 3xFLAG-PP6C IP-MS",,concentration not given,reference: CYB5R4 KO over parental,log2 fold change,0.36
"ACPFGCMKNWSWPIWCTNA (Bicycle 74 bicyclic peptide; C-terminal amide/TATA scaffold, three cysteines cyclised)","NECTIN4 32-349 (Homo sapiens, UniProt Q96NY8)",fluorescence polarisation,peptide,,,Ki,25.6 nM
"FGG (Homo sapiens, UniProt P02679)","KIAA1210 (Homo sapiens, UniProt Q9ULL0)",cross-linking MS,,added: DSSO,,cross-linked residues,K196 to K1667
ecfT (Listeria monocytogenes),EcfA' (Listeria monocytogenes),SEC-MALS,,,,subunits per oligomer,1

# Excerpt of the above:
Molecule,tested on,test,test system,conditions,how to read,quantity,value
"ALB (Homo sapiens, UniProt P02768)","ZNF813 (Homo sapiens, UniProt Q6ZN06)",cross-linking MS,,added: DSSO,,cross-linked residues,K456 to K166
B1 (STAMBP 244-424),"Lys63-linked diubiquitin (Homo sapiens, UniProt P0CG48)","Lys63 diubiquitin cleavage, SDS-PAGE",,"20-100 µM, 20 °C",,kcat,1.4 s⁻¹
